Measurements pooled from the literature.
Protocols differ between the studies behind these lines. Several values in a cell are separate wells, animals, samples, runs or records. Numbers after ± are the reported error.
TOP2A: DNA topoisomerase 2-alpha (TOP2A, Homo sapiens, UniProt P11388)
UniProt P11388, sequence (whole entry, looked up): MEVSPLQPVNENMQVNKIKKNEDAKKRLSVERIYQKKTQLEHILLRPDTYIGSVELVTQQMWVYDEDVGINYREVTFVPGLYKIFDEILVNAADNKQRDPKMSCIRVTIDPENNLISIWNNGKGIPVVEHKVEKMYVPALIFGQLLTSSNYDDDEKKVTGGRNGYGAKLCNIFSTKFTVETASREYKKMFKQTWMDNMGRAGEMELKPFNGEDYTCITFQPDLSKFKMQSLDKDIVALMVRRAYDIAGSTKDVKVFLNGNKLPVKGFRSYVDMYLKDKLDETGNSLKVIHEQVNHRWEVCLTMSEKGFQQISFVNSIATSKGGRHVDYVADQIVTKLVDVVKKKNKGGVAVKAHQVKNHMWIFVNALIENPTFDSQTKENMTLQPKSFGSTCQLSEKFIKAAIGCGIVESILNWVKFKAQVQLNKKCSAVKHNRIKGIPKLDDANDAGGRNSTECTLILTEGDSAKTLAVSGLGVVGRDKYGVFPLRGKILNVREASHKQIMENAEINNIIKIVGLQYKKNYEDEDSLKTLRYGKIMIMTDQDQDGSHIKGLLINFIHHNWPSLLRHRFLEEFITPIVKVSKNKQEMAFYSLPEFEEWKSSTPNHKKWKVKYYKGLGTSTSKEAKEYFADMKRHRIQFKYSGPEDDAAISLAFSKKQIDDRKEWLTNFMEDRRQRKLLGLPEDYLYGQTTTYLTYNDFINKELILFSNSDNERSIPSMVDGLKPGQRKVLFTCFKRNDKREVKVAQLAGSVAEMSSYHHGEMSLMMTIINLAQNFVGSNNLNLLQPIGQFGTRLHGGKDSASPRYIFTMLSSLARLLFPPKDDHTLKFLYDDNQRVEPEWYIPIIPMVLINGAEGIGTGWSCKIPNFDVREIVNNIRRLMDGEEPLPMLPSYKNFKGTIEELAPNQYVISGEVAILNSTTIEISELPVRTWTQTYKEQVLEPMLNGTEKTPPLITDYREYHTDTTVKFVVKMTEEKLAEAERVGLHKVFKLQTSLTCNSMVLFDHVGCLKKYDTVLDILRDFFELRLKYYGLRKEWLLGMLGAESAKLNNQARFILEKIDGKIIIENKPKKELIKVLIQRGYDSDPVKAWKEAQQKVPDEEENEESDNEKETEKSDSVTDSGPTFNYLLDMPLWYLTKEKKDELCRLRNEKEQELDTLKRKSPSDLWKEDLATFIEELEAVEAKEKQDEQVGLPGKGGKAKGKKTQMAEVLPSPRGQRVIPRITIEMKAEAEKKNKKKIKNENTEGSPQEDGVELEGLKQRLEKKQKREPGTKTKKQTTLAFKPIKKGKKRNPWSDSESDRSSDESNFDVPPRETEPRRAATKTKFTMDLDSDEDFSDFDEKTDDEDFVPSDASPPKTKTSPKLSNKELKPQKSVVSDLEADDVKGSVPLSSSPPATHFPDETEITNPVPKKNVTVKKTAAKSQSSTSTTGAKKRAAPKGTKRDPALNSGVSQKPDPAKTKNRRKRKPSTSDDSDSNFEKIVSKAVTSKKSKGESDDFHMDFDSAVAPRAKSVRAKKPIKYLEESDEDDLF
PSMB6: Proteasome subunit beta type-6 (PSMB6, Homo sapiens, UniProt P28072)
UniProt P28072, sequence (whole entry, looked up): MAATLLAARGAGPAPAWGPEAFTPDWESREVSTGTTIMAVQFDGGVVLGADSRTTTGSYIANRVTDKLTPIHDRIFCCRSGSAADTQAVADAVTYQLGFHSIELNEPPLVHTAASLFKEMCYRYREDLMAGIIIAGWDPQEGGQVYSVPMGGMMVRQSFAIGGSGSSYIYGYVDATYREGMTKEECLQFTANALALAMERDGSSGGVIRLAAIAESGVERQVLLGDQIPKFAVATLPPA
KCNH2: Voltage-gated inwardly rectifying potassium channel KCNH2 (KCNH2, Homo sapiens, UniProt Q12809)
UniProt Q12809, sequence (whole entry, looked up): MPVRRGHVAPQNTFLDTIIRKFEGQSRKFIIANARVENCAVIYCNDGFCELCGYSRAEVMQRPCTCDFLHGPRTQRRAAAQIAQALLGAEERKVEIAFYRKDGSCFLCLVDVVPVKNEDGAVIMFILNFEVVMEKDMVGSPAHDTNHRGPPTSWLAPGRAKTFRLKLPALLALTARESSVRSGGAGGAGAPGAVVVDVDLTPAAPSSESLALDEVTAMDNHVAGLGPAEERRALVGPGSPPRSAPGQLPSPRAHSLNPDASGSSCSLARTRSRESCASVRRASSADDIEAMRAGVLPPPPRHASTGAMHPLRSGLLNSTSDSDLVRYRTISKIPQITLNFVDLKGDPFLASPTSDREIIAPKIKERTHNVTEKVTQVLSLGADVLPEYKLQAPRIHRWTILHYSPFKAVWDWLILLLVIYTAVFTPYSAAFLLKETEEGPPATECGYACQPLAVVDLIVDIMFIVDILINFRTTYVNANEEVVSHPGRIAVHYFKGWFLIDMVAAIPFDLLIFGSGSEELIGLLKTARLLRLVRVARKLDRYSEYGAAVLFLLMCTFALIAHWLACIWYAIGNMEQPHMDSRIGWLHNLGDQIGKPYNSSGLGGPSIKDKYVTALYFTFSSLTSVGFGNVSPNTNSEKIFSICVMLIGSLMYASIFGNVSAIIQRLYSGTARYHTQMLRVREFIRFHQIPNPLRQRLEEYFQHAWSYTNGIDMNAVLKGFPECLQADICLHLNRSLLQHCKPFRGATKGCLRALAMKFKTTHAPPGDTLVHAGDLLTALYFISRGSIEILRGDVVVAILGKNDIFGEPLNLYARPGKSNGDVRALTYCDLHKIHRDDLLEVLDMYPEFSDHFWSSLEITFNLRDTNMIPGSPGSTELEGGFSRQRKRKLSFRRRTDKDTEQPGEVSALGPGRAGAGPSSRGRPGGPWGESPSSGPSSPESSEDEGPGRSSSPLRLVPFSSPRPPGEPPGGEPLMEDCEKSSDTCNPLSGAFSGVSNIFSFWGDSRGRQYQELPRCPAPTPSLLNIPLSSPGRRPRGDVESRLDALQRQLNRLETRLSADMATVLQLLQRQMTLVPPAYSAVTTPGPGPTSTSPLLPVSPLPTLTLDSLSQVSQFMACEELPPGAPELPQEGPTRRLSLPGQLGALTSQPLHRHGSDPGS
Toll-like receptor 3: Toll-like receptor 3 (Homo sapiens, UniProt O15455)
UniProt O15455, sequence (whole entry, looked up): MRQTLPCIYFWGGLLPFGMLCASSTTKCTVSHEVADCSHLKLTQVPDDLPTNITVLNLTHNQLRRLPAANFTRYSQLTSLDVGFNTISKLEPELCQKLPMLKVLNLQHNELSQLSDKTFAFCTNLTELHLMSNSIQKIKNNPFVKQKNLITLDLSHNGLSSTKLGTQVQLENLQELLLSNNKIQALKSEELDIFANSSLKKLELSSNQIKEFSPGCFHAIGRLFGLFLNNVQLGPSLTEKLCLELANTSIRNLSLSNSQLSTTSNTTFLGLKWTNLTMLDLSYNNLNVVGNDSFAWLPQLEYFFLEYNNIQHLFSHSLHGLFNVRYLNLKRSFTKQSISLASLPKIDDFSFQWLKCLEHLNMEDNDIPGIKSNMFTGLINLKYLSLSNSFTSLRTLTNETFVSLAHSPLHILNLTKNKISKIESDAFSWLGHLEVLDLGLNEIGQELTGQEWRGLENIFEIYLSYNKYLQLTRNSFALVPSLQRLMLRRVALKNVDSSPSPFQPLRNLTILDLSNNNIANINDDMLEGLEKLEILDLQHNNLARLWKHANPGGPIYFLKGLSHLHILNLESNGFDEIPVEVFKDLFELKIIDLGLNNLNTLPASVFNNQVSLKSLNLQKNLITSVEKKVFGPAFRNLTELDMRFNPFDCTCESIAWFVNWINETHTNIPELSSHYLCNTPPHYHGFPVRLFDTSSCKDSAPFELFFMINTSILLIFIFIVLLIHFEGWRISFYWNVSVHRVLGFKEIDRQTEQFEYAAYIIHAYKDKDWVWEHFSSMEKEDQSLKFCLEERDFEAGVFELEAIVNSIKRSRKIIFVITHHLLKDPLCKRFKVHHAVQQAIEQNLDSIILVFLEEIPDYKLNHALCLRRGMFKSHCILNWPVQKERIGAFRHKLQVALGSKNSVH
CA1: Carbonic anhydrase 1 (CA1, Homo sapiens, UniProt P00915)
UniProt P00915, sequence (whole entry, looked up): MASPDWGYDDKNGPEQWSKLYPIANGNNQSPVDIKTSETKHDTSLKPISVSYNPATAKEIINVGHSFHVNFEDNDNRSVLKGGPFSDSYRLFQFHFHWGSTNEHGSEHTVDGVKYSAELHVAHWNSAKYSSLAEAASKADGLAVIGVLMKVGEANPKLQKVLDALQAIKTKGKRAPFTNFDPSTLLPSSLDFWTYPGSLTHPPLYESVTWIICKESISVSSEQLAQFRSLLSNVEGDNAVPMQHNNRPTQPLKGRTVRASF
USP20 ZnF-UBD domain: Ubiquitin carboxyl-terminal hydrolase 20, ZnF-UBD domain (USP20, Homo sapiens, UniProt Q9Y2K6)
UniProt Q9UNQ0, sequence (whole entry, looked up): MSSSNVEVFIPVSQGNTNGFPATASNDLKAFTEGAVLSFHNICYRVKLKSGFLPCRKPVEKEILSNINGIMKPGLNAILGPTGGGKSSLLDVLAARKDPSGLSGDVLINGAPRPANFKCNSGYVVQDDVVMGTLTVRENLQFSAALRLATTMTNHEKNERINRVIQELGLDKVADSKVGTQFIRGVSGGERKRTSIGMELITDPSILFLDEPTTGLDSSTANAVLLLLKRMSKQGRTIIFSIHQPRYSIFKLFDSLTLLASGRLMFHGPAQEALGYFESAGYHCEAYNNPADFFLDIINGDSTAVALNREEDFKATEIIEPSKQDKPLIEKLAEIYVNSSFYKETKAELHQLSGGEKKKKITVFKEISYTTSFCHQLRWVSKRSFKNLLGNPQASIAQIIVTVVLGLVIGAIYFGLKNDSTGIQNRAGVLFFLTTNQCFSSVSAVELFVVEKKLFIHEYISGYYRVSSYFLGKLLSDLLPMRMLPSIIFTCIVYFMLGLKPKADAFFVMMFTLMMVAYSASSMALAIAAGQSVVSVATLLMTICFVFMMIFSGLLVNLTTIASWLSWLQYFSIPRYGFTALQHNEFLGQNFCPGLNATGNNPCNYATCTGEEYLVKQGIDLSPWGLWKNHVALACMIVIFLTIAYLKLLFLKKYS
UniProt P39877, sequence (whole entry, looked up): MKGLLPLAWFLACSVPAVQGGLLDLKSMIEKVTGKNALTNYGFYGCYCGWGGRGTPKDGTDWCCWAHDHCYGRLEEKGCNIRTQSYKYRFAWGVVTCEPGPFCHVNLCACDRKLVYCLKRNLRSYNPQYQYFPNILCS

`Cc1nc(F)ccc1-c1cc(Cn2ccn(C)c2=N)cc(C(=O)NCc2ccc(Cl)c(Cl)c2)c1` gave an IC50 of over 20 µM (WD repeat-containing protein 5, SETD1B complex (WDR5, Homo sapiens, UniProt P61964); SETD1B methyltransferase activity, inhibitor; together with: core histones substrate).
`O=c1nc(SCc2cc(F)cc(C(F)(F)F)c2)nc(SCc2ccc3nc(Cl)ccc3c2)[nH]1` gave an IC50 of 22.9 µM (TOP2A; ATPase activity, inhibitor, competitive ATPase; together with: 0.25 mM ATP).
For `Cc1ncc(C(=O)N[C@@H](CC(C)C)C(=O)N[C@@H](CC2CCCCC2)C(=O)N[C@H](/C=C/S(C)(=O)=O)Cc2ccc(CN)cc2)s1`, the IC50 was over 10 µM (PSMB6; competitive ABPP; Raji cell lysate).
The IC50 of `COc1ccc(C(=O)Nc2ccc(-c3nc4ccccc4[nH]3)cc2)c(OC)c1` is reported as over 100 µM (Tyrosine-protein kinase SYK, with FCER1G (SYK, Homo sapiens, UniProt P43405); inhibitor, TR-FRET; counter screen).
The IC50 of `CC(C)C[C@H](NC(=O)[C@H](Cc1ccccc1)N=[N+]=[N-])C(=O)N[C@@H](CC(C)(C)F)C(=O)N[C@H](/C=C/S(C)(=O)=O)Cc1ccc(CN)cc1` is reported as over 10 µM (PSMB6; competitive ABPP; Raji cell lysate).
For `C[C@H]1[C@H](F)C[C@@H](C(=O)NCc2cc(-c3cnc(C(F)(F)F)nc3)ncc2C(F)(F)F)N1S(=O)(=O)c1ccc(F)cc1`, the IC50 was over 20 µM (Short transient receptor potential channel 6 (TRPC6, Homo sapiens, UniProt Q9Y210); membrane potential, antagonist; human cells; together with: carbachol 75 µM).
`COc1cc(CNC(=O)c2cccc(CNC3=NCCN3)c2F)cc(OC)c1` has an IC50 of over 3 µM (WD repeat-containing protein 5, MLL1 complex (WDR5, Homo sapiens, UniProt P61964)).
For `Nc1ncnc2c1ncn2C1CCCC1`, the IC50 was 1.7 ± 0.2 µM (Inositol-tetrakisphosphate 1-kinase (Homo sapiens, UniProt Q13572); phosphatase activity, inhibitor, radiometric).
For `COc1cc2c(cc1OC)C1CC(=O)C(CC(C)C)CN1CC2` (stereo not shown), the IC50 was 0.0261 µM (Synaptic vesicular amine transporter (SLC18A2, Homo sapiens, UniProt Q05940, Y433F); transporter uptake, fluorescence imaging; mutant Y433F, together with: 5 µM FFN206).
With `CCc1ccc(/C=N/n2c(C)nc3ccc(C)cc3c2=O)s1` the IC50 was 71.3 ± 2.73 µM (Phospholipase A2 group V (PLA2G5, Homo sapiens, UniProt P39877); enzyme activity, inhibitor, colorimetric).
For `CC[C@@H]1[C@H](F)C(=O)N[C@@H]1COc1nccc2cc(C(N)=O)c(OC)cc12`, the IC50 was 2.9 µM (Cyclin-G-associated kinase (GAK, Homo sapiens, UniProt O14976); ATP-site probe binding, ActivX profiling; THP-1 cell lysate; Lys2 site).
The IC50 of `COc1ccc2c(Cc3ccccc3F)c3n(c(=O)c2c1OC)CCc1cc2c(cc1-3)OCO2` is reported as over 10 µM (KCNH2; 1 h, pH 7.4).
For `Cc1c2ccncc2c(C)c2c1[nH]c1ccc(C=O)cc12`, the IC50 was 6.78 ± 1.55 µM (Toll-like receptor 3; reporter gene, inhibitor; HEK-Blue hTLR3; together with: poly(I:C)).
The IC50 of `Cc1ncc(C(=O)N[C@@H](CCC2CCCCC2)C(=O)N[C@@H](CC(C)C)C(=O)N[C@H](/C=C/S(C)(=O)=O)Cc2ccc(CN)cc2)s1` is reported as over 10 µM (PSMB6; competitive ABPP; Raji cell lysate).
`CC(C)C[C@H](NC(=O)[C@H](Cc1ccc(O)cc1)NC(=O)[C@@H](N)CCCNC(=N)N)C(=O)N1CCC[C@H]1C(=O)N[C@H](C(=O)O)[C@@H](C)O` has an IC50 of 0.8 µM (rat neuron-specific aminopeptidase; enzyme activity, inhibitor).
For `Cc1c(C(=O)O)ccc2c3n(nc12)[C@@H]1[C@H](C3)N(CC2CC2)[C@@]2(C(=O)Nc3cc(Cl)ccc32)[C@H]1c1cccc(Cl)c1F`, the IC50 was 7.94 µM (Protein Mdm4, with p53 (MDM4, Homo sapiens, UniProt O15151, C17S); MDMX-p53 binding, inhibitor, AlphaScreen).
For `CCOC(=O)C(C)(COP(=O)(OC)OCCCCCCNC(=O)c1ccc(C(=O)OC)c(N)c1)C(=O)CSC(C)=O` (stereo not shown), the IC50 was 234 µM (Retinal rod rhodopsin-sensitive cGMP 3',5'-cyclic phosphodiesterase subunit delta (PDE6D, Homo sapiens, UniProt O43924)).
For `Cc1cnc(-c2ccc(-c3ccc(NC(=O)Nc4c(F)cc(F)cc4F)cc3F)c3c2C(=O)NC3)[nH]1`, the IC50 was 0.0908 µM (Mast/stem cell growth factor receptor Kit (KIT, Homo sapiens, UniProt P10721); enzyme activity, inhibitor, mobility shift; together with: ATP 1 mM).
For `OC1CCN(c2ccc(/C=N/NC(=S)NC3CCCCC3)cc2)CC1`, the IC50 was 0.529 µM (CA1; enzyme activity, inhibitor).
For `COc1ccc(C[C@H](NC(=O)[C@H](C)NC(=O)CN2CCOCC2)C(=O)N[C@@H](CC2CCC(C3CCCCC3)CC2)C(=O)[C@@]2(C)CO2)cc1` (stereo partly shown), the IC50 was over 10 µM (PSMB6; competitive ABPP; Raji cell lysate).
With `CC1(C)CN(C(=O)Cn2c(=O)c(C(=O)NCc3ccc(Cl)cc3)cc3nccnc32)C1` the IC50 was 4.85 µM (KCNH2; ion current, automated patch clamp).
For `Cc1ccc(S(=O)(=O)n2cc(/C=N/NC(=S)Nc3ccc(F)cc3)c3ccccc32)cc1`, the IC50 was 21.4 ± 0.48 µM (mushroom tyrosinase; enzyme activity, inhibitor; together with: L-DOPA substrate).
`C=CC(=O)N1CCC(CNc2ncnc(N)c2-c2ccc(Oc3ccccc3)cc2)CC1` gave an IC50 of over 5 µM (Tyrosine-protein kinase CSK (CSK, Homo sapiens, UniProt P41240)).
With `OC1CCN(c2ccc(/C=N/NC(=S)Nc3ccc(F)cc3)cc2)CC1` the IC50 was 0.395 µM (CA1; enzyme activity, inhibitor).
`CC1=NOC(CNC(=O)c2cnc3c(c(C)nn3C)c2Cl)C1` (stereo not shown) gave an IC50 of over 63 µM (Malate dehydrogenase, mitochondrial (MDH2, Sus scrofa, UniProt P00346); enzyme activity, reporter counter-screen; native enzyme).
`COc1ccc(C[C@H](NC(=O)[C@H](C)NC(=O)CN2CCOCC2)C(=O)N[C@@H](CC2CCC(OC)CC2)C(=O)[C@@]2(C)CO2)cc1` (stereo partly shown) has an IC50 of over 10 µM (PSMB6; competitive ABPP; Raji cell lysate).
For `Cc1cc(N2CCc3c(c(C)nn3CC34CCC(NC(=O)[C@@H]5COCCN5)(CC3)CC4)C2)c2cnn(C)c2n1`, the IC50 was 0.008 ± 0.006 µM (Toll-like receptor 7 (TLR7, Homo sapiens, UniProt Q9NYK1); IFNα release, antagonist; SLE patients, whole blood; together with: ssRNA).
For `O=C(O)CCc1cn2cccnc2n1`, the Kd was 956 µM (USP20 ZnF-UBD domain).
`Cc1cc(OC(C)C)ccc1C(=O)C(C)(C)NC(=O)c1sccc1C` gave an IC50 of over 1 µg/mL (mitochondrial complex I-III (NADH-cytochrome c oxidoreductase), Botrytis cinerea; enzyme activity, inhibitor; mitochondrial fraction).
`COc1ccccc1N1CCN(C(=O)c2ccc(S(=O)(=O)n3cnc(C4CCCCC4)n3)cc2)CC1` has an IC50 of 0.035 µM (Aldo-keto reductase family 1 member C3 (AKR1C3, Homo sapiens, UniProt P42330); probe labelling, competitive ABPP; COLO 205).
For `[Fe+2].c1ccc(CN(Cc2ccccn2)C(c2ccccn2)c2ccccn2)nc1`, the IC50 was over 1000 µM (Proteasome subunit beta type-6, caspase-like site (PSMB6, Homo sapiens, UniProt P28072); caspase-like activity, inhibitor, purified 20S proteasome; pH 7.4, together with: 20 µM Z-LLE-AMC).
`COc1cc(C(=O)NS(=O)(=O)c2ccccc2C)ccc1Cc1cn(C)c2ccc(NC(=O)OC3CCCC3)cc12` gave an IC50 of 18.5 µM (LRRC8A/LRRC8C (Homo sapiens, UniProt Q8IWT6+Q8TDW0, Y124F/Y126F); ion current, inhibitor, whole-cell patch clamp; HCT116 LRRC8-/- transfected; at -100 mV).
With `Cc1ccc(S(=O)(=O)n2cc(/C=N/NC(=S)Nc3cccc(Cl)c3Cl)c3ccccc32)cc1` the IC50 was 11.5 ± 0.36 µM (mushroom tyrosinase; enzyme activity, inhibitor; together with: L-DOPA substrate).
With `OC1CCN(c2ccc(/C=N/NC(=S)NCCc3ccccc3)cc2)CC1` the IC50 was 0.706 µM (CA1; enzyme activity, inhibitor).
`CC(=O)N1C[C@H](CCN2CCC(c3c[nH]c4cc(Cl)ccc34)CC2)c2ccccc21` gave an IC50 of 1.48 µM (Sodium-dependent serotonin transporter (SLC6A4, Homo sapiens, UniProt P31645); inhibitor).
The IC50 of `CCn1c(-c2nc3ccc(C(=O)N4CCCC(N)C4)cc3n2C)cc2ccccc21` (stereo not shown) is reported as over 31.6 µM (5-hydroxytryptamine receptor 1B (HTR1B, Homo sapiens, UniProt P28222); antagonist, GTPγS binding).
With `Cc1c2ccncc2c(C)c2c1[nH]c1ccc(F)cc12` the IC50 was 1.01 ± 0.15 µM (Toll-like receptor 3; reporter gene, inhibitor; HEK-Blue hTLR3; together with: poly(I:C)).
`Cc1ncc(COP(=O)(O)O)c(C=O)c1O` has an IC50 of 2700 µM (PDX3 (Saccharomyces cerevisiae, UniProt P38075, E122V/K222Q/L206S); PNP oxidase activity, inhibitor; together with: 4 mM PNP substrate, 0.4 mM FMN).
`O=c1nc(SCc2cc(F)cc(C(F)(F)F)c2)nc(SCc2ccc3sccc3c2)[nH]1` has an IC50 of 13.1 µM (TOP2A; ATPase activity, ATP-competitive inhibitor; together with: ATP 0.1 mM).
`COc1ccc(C[C@H](NC(=O)[C@H](C)NC(=O)CN2CCOCC2)C(=O)N[C@@H](CC2CCC3CCCCC3C2)C(=O)[C@@]2(C)CO2)cc1` (stereo partly shown) gave an IC50 of over 10 µM (PSMB6; competitive ABPP; Raji cell lysate).
`CC1(F)CN(C(=O)Cn2c(=O)c(C(=O)NCc3ccc(Cl)cc3)cc3nc(N4CCN(CC(=O)O)C4=O)cnc32)C1` has an IC50 of 26.4 µM (KCNH2; ion current, automated patch clamp).
The IC50 of `Cc1ncc(C(=O)N[C@@H](CC(C)C)C(=O)N[C@@H](CCC2CCCCC2)C(=O)N[C@H](/C=C/S(C)(=O)=O)Cc2ccc(CN)cc2)s1` is reported as over 10 µM (PSMB6; competitive ABPP; Raji cell lysate).
`O=C(O)CCN1C(=O)CSC1=S` gave an IC50 of 735 µM (mushroom tyrosinase; enzyme activity, inhibitor; 25 °C, together with: L-DOPA 1 mM).
With `COc1cc(C)c2c(c1C=O)Oc1c(c(C)c(O)c3c1C(O)OC3=O)OC2=O` (stereo not shown) the IC50 was 29.4 ± 4.66 µM (Replicase polyprotein 1ab, 3C-like proteinase (Feline coronavirus, UniProt Q98VG9); protease activity, inhibitor; together with: 6 µM fluorogenic substrate).
`COc1ccc2c3c([nH]c2c1)[C@H](CC(C)C)N1C(=O)[C@H](CC(=O)NCc2ccccc2)NC(=O)[C@@H]1C3` gave an IC50 of 0.323 µM and 0.21 µM and 0.213 µM (Broad substrate specificity ATP-binding cassette transporter ABCG2 (ABCG2, Homo sapiens, UniProt Q9UNQ0); inhibitor, item: protoporphyrin IX; A549; 2 h, together with: 1 mM ALA).
With `Cc1cc(C)c2nc(C)cc(NCCc3ccccc3)c2c1` the IC50 was 7.8 µM (CatSper channel complex (Homo sapiens, UniProt Q7RTX7+Q86XQ3+Q8NEC5+Q96P56); calcium influx, inhibitor, FLIPR; human sperm; together with: high pH, high potassium).
For `CN1CCN(c2ccc(Nc3ncc4cc(C#N)c(=O)n(C5CCCC5)c4n3)cc2)CC1`, the IC50 was under 0.001 µM (Macrophage colony-stimulating factor 1 receptor (CSF1R, Homo sapiens, UniProt P07333)).
For `O=C(O)Cc1nc2ccccc2o1`, the Kd was 403 µM (USP20 ZnF-UBD domain).
The IC50 of `Cc1ccc(S(=O)(=O)n2cc(/C=N/NC(=S)Nc3cccc([N+](=O)[O-])c3)c3ccccc32)cc1` is reported as 6.4 ± 0.21 µM (mushroom tyrosinase; enzyme activity, inhibitor; together with: L-DOPA substrate).

Excerpt of the above:
With `OC1CCN(c2ccc(/C=N/NC(=S)Nc3ccc(F)cc3)cc2)CC1` the IC50 was 0.395 µM (CA1; enzyme activity, inhibitor).
`CC1=NOC(CNC(=O)c2cnc3c(c(C)nn3C)c2Cl)C1` (stereo not shown) gave an IC50 of over 63 µM (Malate dehydrogenase, mitochondrial (MDH2, Sus scrofa, UniProt P00346); enzyme activity, reporter counter-screen; native enzyme).
`COc1ccc(C[C@H](NC(=O)[C@H](C)NC(=O)CN2CCOCC2)C(=O)N[C@@H](CC2CCC(OC)CC2)C(=O)[C@@]2(C)CO2)cc1` (stereo partly shown) has an IC50 of over 10 µM (PSMB6; competitive ABPP; Raji cell lysate).
For `Cc1cc(N2CCc3c(c(C)nn3CC34CCC(NC(=O)[C@@H]5COCCN5)(CC3)CC4)C2)c2cnn(C)c2n1`, the IC50 was 0.008 ± 0.006 µM (Toll-like receptor 7 (TLR7, Homo sapiens, UniProt Q9NYK1); IFNα release, antagonist; SLE patients, whole blood; together with: ssRNA).
For `O=C(O)CCc1cn2cccnc2n1`, the Kd was 956 µM (USP20 ZnF-UBD domain).
